Measured values collected from several papers.
Compare with care: the assays were run in different laboratories.
Technique: steady-state kinetics
B1: enzyme E217L/L163H/N249W (Thermobifida fusca, UniProt Q47RK4); chain MTDVYILDAVRTPFGRYGGALSGIRPDDLAAHVLRALAERSPGLDPAAVDDVFFGDANGAGEDNRNVARMAALLAGWPTSVPGVTLNRLCGSGMESVIAANRAIAVGDASLAVAGGVESMSRAPWVLPKPAQGFPTGHETLYSTTLGWRMVNPAMPEQWTVSHGESTEQVAATYGISRAEQDAFALRSHERAARAWAEGVFDAEITQIPGAELERDLSIRETSAEKLAALKPAFRPDGTITAGNASPLWDGAAALLIGDAAAAERVGREPLARIVSRGVAAVDPDVFGIGPVQAAEIALRRAGIGWDDLSVVELNEAFAAQSLACLKLWPDLDPEIVNPNGGAIAIGHPLGASGARIVGTLAHELHRRGGGWGLAAICIGVGQGLAVVLHR
B2: nitrilase (Rhodococcus rhodochrous, UniProt A4LA85); chain MVEYTNTFKVAAVQAQPVWFDAAKTVDKTVSIIAEAARNGCELVAFPEVFIPGYPYHIWVDSPLAGMAKFAVRYHENSLTMDSPHVQRLLDAARDHNIAVVVGISERDGGSLYMTQLIIDADGQLVARRRKLKPTHVERSVYGEGNGSDISVYDMPFARLGALNCWEHFQTLTKYAMYSMHEQVHVASWPGMSLYQPEVPAFGVDAQLTATRMYALEGQTFVVCTTQVVTPEAHEFFCENEEQRKLIGRGGGFARIIGPDGRDLATPLAEDEEGILYADIDLSAITLAKQAADPVGHYSRPDVLSLNFNQRRTTPVNTPLSTIHATHTFVPQFGALDGVRELNGADEQRALPSTHSDETDRATASI
B3: enzyme N488A (Limosilactobacillus reuteri, UniProt Q8GP32); chain SADTNIENNDSSTVQVTTGDNDIAVKSVTLGSGQVSAASDTTIRTSANANSASSAANTQNSNSQVASSAAITSSTSSAASSNNTDSKAAQENTNTAKNDDTQKAAPANESSEAKNEPAVNVNDSSAAKNDDQQSSKKNTTAKLNKDAENVVKKAGIDPNSLTDDQIKALNKMNFSKAAKSGTQMTYNDFQKIADTLIKQDGRYTVPFFKASEIKNMPAATTKDAQTNTIEPLDVWDSWPVQDVRTGQVANWNGYQLVIAMMGIPNQNDNHIYLLYNKYGDNELSHWKNVGPIFGYNSTAVSQEWSGSAVLNSDNSIQLFYTRVDTSDNNTNHQKIASATLYLTDNNGNVSLAQVANDHIVFEGDGYYYQTYDQWKATNKGADNIAMRDAHVIEDDNGDRYLVFEASTGLENYQGEDQIYNWLNYGGDDAFNIKSLFRILSNDDIKSRATWAAAAIGILKLNKDEKNPKVAELYSPLISAPMVSDEIERPNVVKLGNKYYLFAATRLNRGSNDDAWMNANYAVGDNVAMVGYVADSLTGSYKPLNDSGVVLTASVPANWRTATYSYYAVPVAGKDDQVLVTSYMTNRNGVAGKGMDSTWAPSFLLQINPDNTTTVLAKMTNQGDWIWDDSSENLDMIGDLDSAALPGERDKPVDWDLIGYGLKP
B4: enzyme D233E (Acetivibrio thermocellus, UniProt A3DJ38); chain MKLTIPELSLVVLIGSSGSGKSTFAKKHFKPTEVISSDFCRGLVSDDENDQTVTGAAFDVLHYIVSKRLQLGKLTVVDATNVQESARKPLIEIAKDYHCFPVAVVFNLPEKVCQERNKNRTDRQVEEYVIRKHTQQLKKSIKGLQREGFRYVYILNSPEEVEEVVFERQPLWNNKKDEHGPFDIIGDIHGCYDELKMLLEKLGYLIEEVEGGVGSGKYRVTHPEGRKVLFLGELVDRGPKITEVLKLVMGMVKSGIALCVPGNHDVKLLRKLNGRDVQITHGLDRTLEQLAKEPQEFIEEVKAFIDGLVSHYVLDDGKLVVAHAGMKEEFQGRGSGKVREFALYGETTGETDEYGLPVRYDWASDYRGKALVVYGHTPQAEVLKVNNTINIDTGCVFGGKLTAYRYPEREIVDVKALKTYYEPAKPFLPKEDMAERFEARTDNDILDINDVLGKKIITTRLMSSITIHEENSIAALEVMSRFAADPHWLIYLPPTMSPCETSKKEGMLEHPIEAFEYFRTRGVGKVVCEQKHMGSRAVVIVCKDSQVAEKRFGVLDGTAGICYTRTGRHFFDDMQLEAELIDRVRKVLDKSGFWGDFNTDWVCLDCELMPWSAKAQKLLEEQYSAVGISGRVVLDEAVKLLKQASLNKTVSFDVSRQTSGKNADINELLQRFTERSEMMQKYVEAYRKYCWPVNSIDDLKLAPFHILATEGKVHSDKNHIWHMDTIAKYCTQDDSLIMATNHILVDVTDAESVDKGIKWWEDLTASGGEGMVVKPYDFIVKNGRELLQPAVKCRGREYLRIIYGPEYTMDENIERLRNRAVGKKRSLALREFSLGMEALERFVRNEPLYRVHECVFGVLALESEPVDPRL
B5: protein (Prochlorococcus marinus, UniProt Q7V6D4); chain MPTLEMPVAAVLDSTVGSSEALPDFTSDRYKDAYSRINAIVIEGEQEAHDNYIAIGTLLPDHVEELKRLAKMEMRHKKGFTACGKNLGVEADMDFAREFFAPLRDNFQTALGQGKTPTCLLIQALLIEAFAISAYHTYIPVSDPFARKITEGVVKDEYTHLNYGEAWLKANLESCREELLEANRENLPLIRRMLDQVAGDAAVLQMDKEDLIEDFLIAYQESLTEIGFNTREITRMAAAALVS
Sequence of UniProt P30986 (whole entry, looked up): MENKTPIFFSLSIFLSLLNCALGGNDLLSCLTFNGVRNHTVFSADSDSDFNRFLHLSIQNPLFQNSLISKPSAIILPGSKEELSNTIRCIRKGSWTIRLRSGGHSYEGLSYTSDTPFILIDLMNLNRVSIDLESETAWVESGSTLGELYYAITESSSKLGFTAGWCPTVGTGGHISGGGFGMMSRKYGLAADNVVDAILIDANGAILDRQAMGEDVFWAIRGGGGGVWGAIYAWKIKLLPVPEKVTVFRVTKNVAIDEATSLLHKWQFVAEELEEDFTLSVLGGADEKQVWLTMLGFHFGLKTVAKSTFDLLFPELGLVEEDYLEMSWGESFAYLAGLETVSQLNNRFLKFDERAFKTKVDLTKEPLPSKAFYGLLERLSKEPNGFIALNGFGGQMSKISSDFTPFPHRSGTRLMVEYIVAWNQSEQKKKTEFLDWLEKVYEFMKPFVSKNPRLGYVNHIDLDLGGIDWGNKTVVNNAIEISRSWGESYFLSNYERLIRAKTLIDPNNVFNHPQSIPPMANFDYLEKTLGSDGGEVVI
Sequence of UniProt Q9UBD6 (whole entry, looked up): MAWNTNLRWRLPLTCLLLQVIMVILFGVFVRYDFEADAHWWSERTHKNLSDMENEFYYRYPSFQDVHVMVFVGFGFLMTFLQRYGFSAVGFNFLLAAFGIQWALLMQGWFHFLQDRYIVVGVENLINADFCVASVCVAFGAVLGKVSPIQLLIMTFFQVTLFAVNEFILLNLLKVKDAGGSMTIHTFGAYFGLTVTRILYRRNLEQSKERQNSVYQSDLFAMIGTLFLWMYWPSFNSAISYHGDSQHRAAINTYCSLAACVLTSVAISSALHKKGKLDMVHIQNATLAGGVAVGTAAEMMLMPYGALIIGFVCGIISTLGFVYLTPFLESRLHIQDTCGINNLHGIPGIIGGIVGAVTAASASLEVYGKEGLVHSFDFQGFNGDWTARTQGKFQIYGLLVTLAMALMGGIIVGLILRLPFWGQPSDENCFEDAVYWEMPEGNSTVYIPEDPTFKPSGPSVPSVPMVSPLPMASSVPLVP

Molecule | substrate | pH | temperature | notes | Km
azu N30H/N36H/Q34D (Pseudomonas aeruginosa) | O=NO | pH 6.35 | – | – | 36000 µM
RHCG (Homo sapiens, UniProt Q9UBD6) | CN | – | – | not purified | 3800 µM
tgt C145V/T146V/V217G (Escherichia coli) | Nc1nc2nc[nH]c2c(=O)[nH]1 | pH 7.3 | 37 °C | – | 2.09 µM
B1 (enzyme E217L/L163H/N249W) | CC(C)(COP(=O)(O)OP(=O)(O)OC[C@H]1O[C@@H](n2cnc3c(N)ncnc32)[C@H](O)[C@@H]1OP(=O)(O)O)[C@@H](O)C(=O)NCCC(=O)NCCSC(=O)CCC(=O)O | pH 7.4 | 37 °C | – | 590 µM
B2 (nitrilase) | Cc1cccc(C#N)c1 | pH 7.5 | 25 °C | – | 1850 µM
enzyme (Acinetobacter baumannii, UniProt A0A334FGR6) | Cc1cn([C@H]2C[C@H](O)[C@@H](COP(=O)(O)OP(=O)(O)O[C@H]3O[C@H](C)[C@@H](N)[C@H](O)[C@H]3O)O2)c(=O)[nH]c1=O | pH 7.5 | – | – | 290 µM
B3 (enzyme N488A) | OC[C@H]1O[C@@](CO)(O[C@H]2O[C@H](CO)[C@@H](O)[C@H](O)[C@H]2O)[C@@H](O)[C@@H]1O | pH 5.5 | 50 °C | apparent | 23000 µM
pyc R472S (Rhizobium etli) | Nc1ncnc2c1ncn2[C@@H]1O[C@H](COP(=O)(O)OP(=O)(O)OP(=O)(O)O)[C@@H](O)[C@H]1O | pH 7.8 | 30 °C | – | 1000 µM
BBE1 (Eschscholzia californica, UniProt P30986) | COc1ccc(C[C@H]2c3cc(O)c(OC)cc3CCN2C)cc1O | pH 9 | 25 °C | apparent | 0.27 µM
wbpB (Pseudomonas aeruginosa, UniProt G3XD23) | CC(=O)N[C@H]1[C@@H](OP(=O)(O)OP(=O)(O)OC[C@H]2O[C@@H](n3ccc(=O)[nH]c3=O)[C@H](O)[C@@H]2O)O[C@H](C(=O)O)[C@@H](O)[C@@H]1O | pH 8.5 | 25 °C | – | 250 µM
CPB2 (Homo sapiens, UniProt Q96IY4) | C[C@H](NC(=O)[C@H](Cc1ccccc1)NC(=O)[C@H](CCC(N)=O)NC(=O)CNC(=O)[C@@H]1CCCN1C(=O)[C@H](Cc1ccccc1)NC(=O)[C@@H](N)Cc1ccc(O)cc1)C(=O)N[C@@H](Cc1ccccc1)C(=O)N[C@@H](CO)C(=O)N[C@@H](CCCCN)C(=O)O | – | 37 °C | – | 123 µM
B4 (enzyme D233E) | Nc1ncnc2c1ncn2[C@@H]1O[C@H](CO)[C@H]2OP(=O)(O)O[C@H]21 | pH 7.5 | 45 °C | – | 62000 µM
B5 (protein) | CCCC=O | pH 7.2 | 37 °C | apparent, micro-aerobic | 10100 µM
enzyme (Scutellaria baicalensis, UniProt A0A146AUI9) | O=C1C[C@@H](c2ccc(O)cc2)Oc2cc(O)cc(O)c21 | pH 7.9 | 28 °C | apparent, not purified | 0.28 µM
Cj1427c (Campylobacter jejuni, UniProt Q0P8I7) | O=C(O)CCC(=O)C(=O)O | pH 7.4 | 30 °C | apparent | 130 µM
CYP2C19 (Homo sapiens, UniProt P33261) | CCOC(=O)C1(c2ccccc2)CCN(C)CC1 | pH 7.4 | – | – | 167 µM
